Experimental data pooled from the literature.
Each numbered part is a random draw from the data of one study; scales do not carry over between parts.

Block 1
Target: Interferon regulatory factor 7, full length, phosphomimetic (IRF7, Homo sapiens, UniProt Q92985, residues 1-503, S471D/S472D/S475D/S476D/S477D/S483D/S484D/S487D)
Technique: protein-binding microarray
Molecule type: double-stranded DNA, one strand shown
Medium: in vitro
Concentration: 2200 nM top
Setting: 60-bp whole probe
With: salmon DNA 0.4 mg/ml
Baseline: random background probes
Reading: higher = stronger binding
All sequences stand within: GCCTAGCAC … GTCTTGATTCGCTTGACGCTGCTG
Residues (chain): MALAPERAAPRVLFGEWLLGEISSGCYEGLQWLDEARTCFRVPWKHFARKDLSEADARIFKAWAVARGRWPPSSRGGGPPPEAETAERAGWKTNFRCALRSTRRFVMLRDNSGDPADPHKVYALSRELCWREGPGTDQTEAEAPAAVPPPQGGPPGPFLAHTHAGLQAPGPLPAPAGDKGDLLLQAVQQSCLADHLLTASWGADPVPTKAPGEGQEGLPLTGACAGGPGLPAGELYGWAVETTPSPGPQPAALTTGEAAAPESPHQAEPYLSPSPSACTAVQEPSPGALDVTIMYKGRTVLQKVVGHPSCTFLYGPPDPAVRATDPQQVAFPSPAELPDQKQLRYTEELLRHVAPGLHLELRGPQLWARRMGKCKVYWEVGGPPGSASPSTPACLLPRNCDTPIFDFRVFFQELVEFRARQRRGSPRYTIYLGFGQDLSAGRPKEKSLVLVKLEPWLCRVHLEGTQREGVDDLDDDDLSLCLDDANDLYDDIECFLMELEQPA
For `GACGCTATCGACACTGGGGACGTGCTA`, “fitted relative affinity” read 0.05 z-score.
Under “fitted relative affinity”, `GACGGTTTCCCACTGCTGACGTGCTAG` is recorded as 2.01 z-score.
For `CTTGTTTTACAATTTGCTTTGTGCTAG`, “fitted relative affinity” read 1.91 z-score.
`GGCTGTTTGGCCCTGAACCTGTGCTAG` — result for “fitted relative affinity”: -0.368 z-score.
`GACGAACGGAGACTGGAGACGTGCTAG`: “fitted relative affinity” -0.458 z-score.
`GACGATATCGACTATCGGGACGTGCTA` — result for “fitted relative affinity”: 0.13 z-score.
`GACCATTTCAGTCTCGAGACGTGCTAG`: “fitted relative affinity” 1.39 z-score.

Block 2
Target: Ras GTPase-activating protein-binding protein 1, C-terminal RGG region (G3BP1, Homo sapiens, UniProt Q13283)
UniProt Q13283, sequence (whole entry, looked up): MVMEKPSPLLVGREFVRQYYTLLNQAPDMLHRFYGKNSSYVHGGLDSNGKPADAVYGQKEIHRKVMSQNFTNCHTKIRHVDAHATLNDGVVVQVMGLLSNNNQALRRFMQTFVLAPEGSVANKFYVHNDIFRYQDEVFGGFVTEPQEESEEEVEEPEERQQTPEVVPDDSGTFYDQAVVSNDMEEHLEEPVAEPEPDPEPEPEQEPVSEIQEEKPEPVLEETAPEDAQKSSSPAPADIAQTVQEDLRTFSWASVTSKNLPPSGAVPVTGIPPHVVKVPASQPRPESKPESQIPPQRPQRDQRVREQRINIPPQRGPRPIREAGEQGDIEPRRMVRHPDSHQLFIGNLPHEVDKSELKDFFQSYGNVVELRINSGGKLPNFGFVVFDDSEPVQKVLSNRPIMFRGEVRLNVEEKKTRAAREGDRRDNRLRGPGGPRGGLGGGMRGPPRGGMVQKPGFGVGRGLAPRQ
Technique: RNA Bind-n-Seq
Molecule type: RNA
Medium: in vitro
Concentration: 1 µM
Setting: whole 134-nt RNA, ends assumed
With: 150 mM KCl
Baseline: input library
Reading: higher = stronger binding
`GGGAGUUCUACAGUCCGACGAUCUUCCGCUGUCUUUUCUGUCUACAGUUUGCGAUCCCCGCGUCCAGGAUGGAGCAGCUGAACGAACUGGAGCUGCUGAUGGAGAAGAGUUUUUGGAAUUCUCGGGUGUCAAGG` has a log2 enrichment of -0.796.
The log2 enrichment of `GGGAGUUCUACAGUCCGACGAUCCACAGACAACACGCACCCACACAGACACAGUGGGAAGGGGUUGGGAUGGGGACAGGGUGCACAGCAGGGCGGGGUAGGACCCCAGCCCCUUGGAAUUCUCGGGUGUCAAGG` is reported as 1.28.
`GGGAGUUCUACAGUCCGACGAUCAAGUCCUGUGCUACACAUCGUAUGUACCGAAUCGGGGUUUUGGUUUUGGUUUUGGGGAAAGUAUUAUGUUACGCCGUUCGGAUCUGCACUUGGAAUUCUCGGGUGUCAAGG` gave a log2 enrichment of -1.4.
`GGGAGUUCUACAGUCCGACGAUCUGGAGAAGCGCUACCUGGCUGCUCAGCGUGAGGCAACAUCCAUCCAUGACCUCAAUGACAAGCUGGAGAAUGAGCUGGCCAACAAGGAGUUGGAAUUCUCGGGUGUCAAGG` has a log2 enrichment of -1.8.

Block 3
Target: Histone acetyltransferase KAT6A, winged helix 1, GST fusion (KAT6A, Homo sapiens, UniProt Q92794, residues 1-85)
Technique: protein binding microarray
Molecule type: double-stranded DNA, one strand shown
Medium: in vitro
Concentration: not given
Setting: 8-mer, flanks averaged, mean of 2 arrays, mostly near background
Baseline: not given
Reading: higher = stronger binding
Residues (chain): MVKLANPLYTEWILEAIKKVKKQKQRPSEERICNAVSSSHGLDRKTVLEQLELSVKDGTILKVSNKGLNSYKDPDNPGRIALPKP
`GGTGTAAA` gave an E-score of -0.129.
With `AGTAGCCG` the E-score was 0.263.
For `CGCTTTTA`, the E-score was 0.288.
The E-score of `ACCCTCGC` is reported as 0.0961.

Further values, each from its own experiment
`PhoQ, residues 284 288 289 292 302 303 GASLAW` has a fold induction of 5.35 (PhoP, residues 12 14 15 18 19 IFFTR (Escherichia coli, UniProt P23836); Sort-seq, refers to: YFP reporter; E. coli; PhoQ-PhoP variant library, with: 10 µM Mg2+; baseline: high Mg2+ state, higher = stronger signaling).
